Assay results pooled from the literature.
Parts stem from different laboratories: compare values within a part only.
Chain of UniProt Q8N5S9 (whole entry, looked up): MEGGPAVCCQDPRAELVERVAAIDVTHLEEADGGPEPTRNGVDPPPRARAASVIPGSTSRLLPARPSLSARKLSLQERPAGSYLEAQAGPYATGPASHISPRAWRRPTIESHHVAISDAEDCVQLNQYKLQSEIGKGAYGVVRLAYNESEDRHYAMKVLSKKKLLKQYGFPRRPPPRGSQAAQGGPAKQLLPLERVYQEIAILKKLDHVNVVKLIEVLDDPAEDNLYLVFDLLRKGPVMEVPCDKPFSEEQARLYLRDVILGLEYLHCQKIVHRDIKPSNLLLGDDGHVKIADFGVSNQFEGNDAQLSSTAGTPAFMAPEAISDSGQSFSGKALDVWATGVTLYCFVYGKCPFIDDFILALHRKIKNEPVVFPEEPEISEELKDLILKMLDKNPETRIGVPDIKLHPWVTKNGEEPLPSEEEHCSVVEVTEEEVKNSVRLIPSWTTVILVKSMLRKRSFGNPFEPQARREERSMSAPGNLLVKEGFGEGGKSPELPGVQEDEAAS
Chain of UniProt O15146 (whole entry, looked up): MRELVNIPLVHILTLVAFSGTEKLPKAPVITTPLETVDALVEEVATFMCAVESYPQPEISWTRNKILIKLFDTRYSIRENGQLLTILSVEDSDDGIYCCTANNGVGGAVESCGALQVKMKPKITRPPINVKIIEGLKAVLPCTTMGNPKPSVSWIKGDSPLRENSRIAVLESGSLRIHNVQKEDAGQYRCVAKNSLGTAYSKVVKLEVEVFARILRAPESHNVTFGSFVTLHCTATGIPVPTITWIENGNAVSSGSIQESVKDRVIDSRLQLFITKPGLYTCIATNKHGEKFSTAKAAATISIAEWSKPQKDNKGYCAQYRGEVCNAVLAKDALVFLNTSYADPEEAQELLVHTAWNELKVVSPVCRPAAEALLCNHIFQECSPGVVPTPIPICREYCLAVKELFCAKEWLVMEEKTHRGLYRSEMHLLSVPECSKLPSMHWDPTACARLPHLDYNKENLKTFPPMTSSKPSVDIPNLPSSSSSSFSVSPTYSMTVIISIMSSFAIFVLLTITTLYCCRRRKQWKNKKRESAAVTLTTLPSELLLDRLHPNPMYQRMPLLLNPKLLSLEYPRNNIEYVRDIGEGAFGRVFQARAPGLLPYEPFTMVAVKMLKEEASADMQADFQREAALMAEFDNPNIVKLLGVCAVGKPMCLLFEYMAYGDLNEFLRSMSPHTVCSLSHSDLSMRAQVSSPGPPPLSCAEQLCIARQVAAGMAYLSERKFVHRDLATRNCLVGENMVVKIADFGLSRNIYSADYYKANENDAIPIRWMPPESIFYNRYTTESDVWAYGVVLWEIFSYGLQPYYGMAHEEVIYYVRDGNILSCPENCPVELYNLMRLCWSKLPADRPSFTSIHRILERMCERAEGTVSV
Chain of UniProt Q05513 (whole entry, looked up): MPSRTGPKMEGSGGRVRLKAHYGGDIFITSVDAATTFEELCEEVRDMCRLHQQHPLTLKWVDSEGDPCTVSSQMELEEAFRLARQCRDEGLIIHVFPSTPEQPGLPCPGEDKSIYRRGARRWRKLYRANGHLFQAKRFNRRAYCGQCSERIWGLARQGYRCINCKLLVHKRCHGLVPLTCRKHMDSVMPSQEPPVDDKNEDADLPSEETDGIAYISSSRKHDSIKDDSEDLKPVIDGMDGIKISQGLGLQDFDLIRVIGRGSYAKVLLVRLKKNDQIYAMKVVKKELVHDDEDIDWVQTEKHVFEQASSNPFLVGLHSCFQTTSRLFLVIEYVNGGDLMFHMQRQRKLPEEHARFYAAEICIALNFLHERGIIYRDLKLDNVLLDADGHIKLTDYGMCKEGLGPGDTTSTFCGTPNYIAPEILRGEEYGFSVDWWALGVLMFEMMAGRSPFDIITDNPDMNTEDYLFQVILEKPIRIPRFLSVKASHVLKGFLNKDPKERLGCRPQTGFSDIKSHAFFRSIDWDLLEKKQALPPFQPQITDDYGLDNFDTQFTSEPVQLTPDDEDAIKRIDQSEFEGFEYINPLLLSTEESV
Chain of UniProt P51812 (whole entry, looked up): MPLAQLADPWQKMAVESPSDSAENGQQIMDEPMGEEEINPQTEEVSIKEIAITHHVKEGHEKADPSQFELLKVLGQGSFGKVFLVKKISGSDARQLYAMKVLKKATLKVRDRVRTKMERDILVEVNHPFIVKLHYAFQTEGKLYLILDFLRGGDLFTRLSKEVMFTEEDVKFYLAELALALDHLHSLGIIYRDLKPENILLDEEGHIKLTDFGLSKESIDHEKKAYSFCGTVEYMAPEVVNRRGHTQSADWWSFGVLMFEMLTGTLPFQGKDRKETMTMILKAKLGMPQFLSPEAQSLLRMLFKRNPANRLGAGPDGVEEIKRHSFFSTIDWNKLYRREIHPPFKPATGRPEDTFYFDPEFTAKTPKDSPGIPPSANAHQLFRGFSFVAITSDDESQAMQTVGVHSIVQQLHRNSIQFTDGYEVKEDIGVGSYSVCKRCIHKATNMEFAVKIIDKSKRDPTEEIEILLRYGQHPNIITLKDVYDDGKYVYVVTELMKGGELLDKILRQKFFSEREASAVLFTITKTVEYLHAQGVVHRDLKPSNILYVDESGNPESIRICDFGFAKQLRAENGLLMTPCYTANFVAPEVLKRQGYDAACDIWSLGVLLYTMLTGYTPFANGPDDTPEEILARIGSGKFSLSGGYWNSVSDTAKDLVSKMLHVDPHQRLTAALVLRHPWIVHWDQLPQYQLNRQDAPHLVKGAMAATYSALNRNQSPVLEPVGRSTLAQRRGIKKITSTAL
Chain of UniProt Q96SB4 (whole entry, looked up): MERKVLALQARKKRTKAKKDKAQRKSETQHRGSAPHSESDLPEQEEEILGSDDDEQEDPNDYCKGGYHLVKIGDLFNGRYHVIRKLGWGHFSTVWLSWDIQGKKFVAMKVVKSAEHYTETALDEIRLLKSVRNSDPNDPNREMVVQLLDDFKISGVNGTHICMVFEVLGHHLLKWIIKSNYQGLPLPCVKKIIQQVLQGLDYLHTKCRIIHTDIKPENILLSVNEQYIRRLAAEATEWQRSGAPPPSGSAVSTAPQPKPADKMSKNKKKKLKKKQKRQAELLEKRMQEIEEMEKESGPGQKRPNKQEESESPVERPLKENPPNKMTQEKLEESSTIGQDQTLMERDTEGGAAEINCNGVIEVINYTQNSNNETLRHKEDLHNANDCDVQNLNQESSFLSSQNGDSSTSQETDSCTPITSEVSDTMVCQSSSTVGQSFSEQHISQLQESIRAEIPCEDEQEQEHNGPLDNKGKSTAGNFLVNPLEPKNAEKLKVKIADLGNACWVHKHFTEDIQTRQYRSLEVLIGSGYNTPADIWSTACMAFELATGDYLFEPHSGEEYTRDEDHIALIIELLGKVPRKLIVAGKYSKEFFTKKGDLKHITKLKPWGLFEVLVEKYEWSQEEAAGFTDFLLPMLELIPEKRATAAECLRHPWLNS
Chain of UniProt Q9HBY8 (whole entry, looked up): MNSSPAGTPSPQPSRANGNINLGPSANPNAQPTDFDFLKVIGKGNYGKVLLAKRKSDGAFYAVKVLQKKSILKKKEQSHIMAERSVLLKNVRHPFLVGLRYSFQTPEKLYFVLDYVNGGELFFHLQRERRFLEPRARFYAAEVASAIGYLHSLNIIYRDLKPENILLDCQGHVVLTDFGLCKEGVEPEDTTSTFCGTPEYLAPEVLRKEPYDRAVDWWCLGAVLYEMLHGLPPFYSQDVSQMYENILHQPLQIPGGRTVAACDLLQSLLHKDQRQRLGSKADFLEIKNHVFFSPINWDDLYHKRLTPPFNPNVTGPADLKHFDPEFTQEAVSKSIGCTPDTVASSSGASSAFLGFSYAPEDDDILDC
Chain of UniProt P49674 (whole entry, looked up): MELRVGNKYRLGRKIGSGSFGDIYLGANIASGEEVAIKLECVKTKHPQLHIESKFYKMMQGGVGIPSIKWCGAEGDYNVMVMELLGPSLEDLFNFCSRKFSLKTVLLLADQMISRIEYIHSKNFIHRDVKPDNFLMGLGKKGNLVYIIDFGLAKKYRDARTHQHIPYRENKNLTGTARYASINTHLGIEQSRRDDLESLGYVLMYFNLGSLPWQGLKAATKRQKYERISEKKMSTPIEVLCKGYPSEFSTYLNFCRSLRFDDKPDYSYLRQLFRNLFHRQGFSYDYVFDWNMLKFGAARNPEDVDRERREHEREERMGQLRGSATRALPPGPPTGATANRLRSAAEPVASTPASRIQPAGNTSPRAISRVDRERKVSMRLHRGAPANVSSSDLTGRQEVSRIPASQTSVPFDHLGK
Chain of UniProt Q14012 (whole entry, looked up): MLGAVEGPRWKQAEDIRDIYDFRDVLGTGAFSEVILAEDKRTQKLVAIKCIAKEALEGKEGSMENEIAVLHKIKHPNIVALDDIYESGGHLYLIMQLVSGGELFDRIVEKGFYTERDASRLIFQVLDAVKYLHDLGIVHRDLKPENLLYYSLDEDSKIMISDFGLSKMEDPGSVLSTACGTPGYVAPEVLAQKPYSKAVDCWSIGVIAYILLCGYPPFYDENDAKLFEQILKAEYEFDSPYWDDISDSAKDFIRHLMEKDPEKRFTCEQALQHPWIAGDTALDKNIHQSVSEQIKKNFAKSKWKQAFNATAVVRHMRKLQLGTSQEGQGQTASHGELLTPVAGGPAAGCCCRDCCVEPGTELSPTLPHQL

Set 1
Compound: CCCCc1c(-c2ccc(OC)cc2)[nH]c2nccnc12
Read-out: enzyme activity
Mode: inhibitor
Concentration: 0.5 µM
Reference: control
| target | remaining activity [%] |
| --- | --- |
| MUSK (Homo sapiens, UniProt O15146) | 95.4 |
| RPS6KA3 (Homo sapiens, UniProt P51812) | 88 |
| CAMKK1 (Homo sapiens, UniProt Q8N5S9) | 105 |
| PAK6 (Homo sapiens, UniProt Q9NQU5) | 96.8 |
| SGK2 (Homo sapiens, UniProt Q9HBY8) | 116 |
| TEC (Homo sapiens, UniProt P42680) | 134 |
| CAMK1 (Homo sapiens, UniProt Q14012) | 90.9 |
| CLK1 (Homo sapiens, UniProt P49759) | 102 |
| PRKCZ (Homo sapiens, UniProt Q05513) | 93.9 |
| SRPK1 (Homo sapiens, UniProt Q96SB4) | 100 |
| SIK2 (Homo sapiens, UniProt Q9H0K1) | 98.4 |
| MAP3K20 (Homo sapiens, UniProt Q9NYL2) | 83.6 |
| JAK1 (Homo sapiens, UniProt P23458) | 67.1 |
| Cyclin-dependent kinase 2, with cyclin E (CDK2, Homo sapiens, UniProt P24941) | 42.1 |
| CLK2 (Homo sapiens, UniProt P49760) | 85.3 |
| EPHA2 (Homo sapiens, UniProt P29317) | 87.9 |
| IGF1R (Homo sapiens, UniProt P08069) | 83.9 |
| TYRO3 (Homo sapiens, UniProt Q06418) | 98.6 |
| PAK1 (Homo sapiens, UniProt Q13153) | 83.7 |
| CSNK1E (Homo sapiens, UniProt P49674) | 109 |
| FLT1 (Homo sapiens, UniProt P17948) | 103 |
| PRKCQ (Homo sapiens, UniProt Q04759) | 107 |

Set 2
Target: Alpha-2C adrenergic receptor (ADRA2C, Homo sapiens, UniProt P18825)
Chain of UniProt P18825 (whole entry, looked up): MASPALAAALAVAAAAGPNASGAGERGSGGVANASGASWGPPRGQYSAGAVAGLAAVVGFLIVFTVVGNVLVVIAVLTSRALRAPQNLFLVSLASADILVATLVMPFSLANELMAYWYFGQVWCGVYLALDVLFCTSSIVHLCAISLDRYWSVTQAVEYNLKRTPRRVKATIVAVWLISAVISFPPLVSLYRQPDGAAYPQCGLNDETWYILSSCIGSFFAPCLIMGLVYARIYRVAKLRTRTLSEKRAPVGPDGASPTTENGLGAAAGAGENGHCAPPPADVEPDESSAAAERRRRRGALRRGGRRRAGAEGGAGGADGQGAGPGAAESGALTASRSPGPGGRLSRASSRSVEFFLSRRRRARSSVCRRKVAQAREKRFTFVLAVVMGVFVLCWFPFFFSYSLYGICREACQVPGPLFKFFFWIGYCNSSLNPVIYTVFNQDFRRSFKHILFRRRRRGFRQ
Read-out: binding
Method: radioligand binding
Concentration: 10 µM
| SMILES | inhibition |
| --- | --- |
| CNC(=O)Nc1ccc2c(c1)[C@]1(CC2)OC(=O)N(CC(=O)N(Cc2ccc(F)cc2)[C@@H](C)C(F)(F)F)C1=O | 8.88% |
| CC(=O)Nc1nc(CN2CCC[C@H](Cc3cc(C)nc(C)c3)C2)cs1 | 36.5% |
| C[C@H](NC(=O)c1cnc2n1[C@](C)(Cc1ccc(C#N)cc1)C(=O)N2c1cc(Cl)c(F)c(Cl)c1)C(=O)NC1(c2ccccn2)CC1 | 0.16% |
| CC1=C(C#N)[C@@H](c2ccc3[nH]nc(C)c3c2)C(C#N)=C(c2ccc(Cl)cc2)N1 | -1.57% |
| Nc1c(C(=O)NCc2ccc(C(=O)NCCCC3CCCCC3)cc2)cnn1-c1ccccc1 | 18.1% |
| CC(=O)N1CCC(c2ccc(C(=O)NC(=N)N)cc2C(F)(F)F)CC1 | 9.12% |
| CCOC(=O)c1cc2cc(-c3cc(C(=O)NCc4ccc(C(=O)O)cc4)nn3C)ccc2[nH]1 | -7.04% |
| CC1=C(C#N)C(c2ccc3c(c2)c(NC(=O)c2ccccc2C)nn3C)C(C#N)=C(C)N1 | 10.2% |
| COCc1nc2cnc3cc(-c4c(C)noc4C)c(OC[C@H]4CCNC4)cc3c2n1[C@H](C)c1ccccc1 | 15.3% |
| CS(=O)(=O)NCC[C@H](NC(=O)c1cncc2c1cnn2-c1ccc(F)cc1)c1ccnc(S(C)(=O)=O)c1 | -2.08% |
| COc1cc(-c2cn(C3CCc4ccccc4N(CC(F)(F)F)C3=O)nn2)ccc1-n1ccc(C)n1 (centres unmarked) | 9.04% |
| C[C@@H]1CN(c2cc(-c3nn(C)c4ccc(OC5(C)CC5)cc34)ncn2)C[C@H](C)O1 | 15.1% |
| Cc1nc(Cc2cccc(C(F)(F)F)c2)sc1-c1ccc(C(N)=O)nc1 | 8.38% |
| Cc1c[nH]c2nccc(Oc3c(F)cc(Nc4cc(Cl)nc(N)n4)cc3F)c12 | -10.9% |
| CCCOc1ccc([C@H]2[C@H](C(=O)O)[C@@H](c3ccc4c(c3)OCO4)CN2CC(=O)Nc2c(CC)cccc2CC)cc1 | 0.5% |
| CNC(=O)c1ccc(Nc2ncc(C(F)(F)F)c(NCc3nccnc3N(C)S(C)(=O)=O)n2)cc1 | 4.73% |
| Cc1cc(C)c(-n2ccn3nc(-c4cccnc4)cc23)cc1NC(=O)c1cc(C#N)cc(S(F)(F)(F)(F)F)c1 | -7.91% |
| O=C(Nc1cccnn1)N1CCC(=Cc2cccc(Oc3ccc(C(F)(F)F)cn3)c2)CC1 | 79.3% |
| C[C@@]1(Cc2ccc(C#N)cc2)C(=O)N(c2cc(Cl)cc(Cl)c2)c2ncc(C(=O)NC3(c4nc(C5CCC5)no4)CC3)n21 | 9.3% |
| CN([C@@H]1CCc2c(CC(=O)O)c3cc(S(C)(=O)=O)ccc3n2C1)S(=O)(=O)c1ccc(F)cc1 | -13.5% |

Further values, each from its own experiment
Mode: inhibitor
| Compound | target | read-out | method | cell line | setting | IC50 [µM] |
| --- | --- | --- | --- | --- | --- | --- |
| O=C1CCC(N2Cc3cc(C4CCN(Cc5ccccc5)CC4)ccc3C2=O)C(=O)N1 (centres unmarked) | KCNH2 (Homo sapiens, UniProt Q12809) | potassium current | manual patch clamp | HEK293 stably transfected with hERG | nominal concentrations | 7.99 |
| CN(C(=O)c1ccn2ncc(-c3ccc(C(N)=O)cc3)c2c1)c1ccc(C#N)cn1 | Phosphatidylinositol 4-kinase (Cryptosporidium parvum, UniProt Q5CVD3) | enzyme activity | ADP-Glo |  | wild type | 0.0148 |
